Measured values collected from several papers.
A part holds a random share of what one study measured. Substitutions count along the parent as printed.

Set 1
Target: Histone acetyltransferase KAT6A, both winged helices, GST fusion (KAT6A, Homo sapiens, UniProt Q92794, residues 1-181)
Method: protein binding microarray
Form: double-stranded DNA, one strand shown
Sample: in vitro
Tested at: not given
Setting: 8-mer, flanks averaged, mean of 2 arrays, mostly near background
Baseline: not given
Direction: higher = stronger binding
Measurement: E-score
Residues (chain): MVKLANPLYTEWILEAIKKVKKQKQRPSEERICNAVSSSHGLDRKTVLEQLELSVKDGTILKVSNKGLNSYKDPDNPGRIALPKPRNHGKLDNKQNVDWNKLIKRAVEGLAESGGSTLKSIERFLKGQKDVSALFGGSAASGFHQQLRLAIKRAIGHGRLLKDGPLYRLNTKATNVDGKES
Oligonucleotide = AAGTTTAA; value = -0.109
Oligonucleotide = ACGTGCGC; value = 0.283
Oligonucleotide = GGCTGAAA; value = 0.00413
Oligonucleotide = CGGTACAC; value = 0.172
Oligonucleotide = GCTAACCA; value = -0.0786
Oligonucleotide = TCGTCCCA; value = -0.159
Oligonucleotide = AGTACCTA; value = -0.141
Oligonucleotide = GCACCCGC; value = 0.263
Oligonucleotide = CTTGCCTC; value = -0.0174
Oligonucleotide = CAAACTTA; value = -0.00246
Oligonucleotide = CGAATCCG; value = 0.219
Oligonucleotide = ATATTGAT; value = -0.117
Oligonucleotide = ATATATTA; value = 0.0416
Oligonucleotide = CCCGCGGC; value = 0.389
Oligonucleotide = ATCGTCCC; value = 0.00646
Oligonucleotide = AGATTTGG; value = -0.214
Oligonucleotide = GGAAGTCA; value = 0.077
Oligonucleotide = AGCACGCA; value = 0.121
Oligonucleotide = CTGGCCTA; value = -0.141
Oligonucleotide = GCGACGTA; value = 0.103
Oligonucleotide = AAGACAAA; value = 0.0151
Oligonucleotide = CCGCTGAC; value = 0.234
Oligonucleotide = CCAATTCA; value = -0.152
Oligonucleotide = ATGCTTAA; value = -0.00291
Oligonucleotide = CGTCTGTC; value = 0.134

Set 2
Target: CCNB2, cyclin fold, Cln2 fusion (human)
Method: yeast growth competition, sequencing
Sample: yeast
Setting: weak parent motif
Baseline: not given
Direction: higher = stronger binding
Measurement: normalised enrichment score
Starting sequence: SAMHD1 docking peptide (human); ASKSRVQLFKDDP; partner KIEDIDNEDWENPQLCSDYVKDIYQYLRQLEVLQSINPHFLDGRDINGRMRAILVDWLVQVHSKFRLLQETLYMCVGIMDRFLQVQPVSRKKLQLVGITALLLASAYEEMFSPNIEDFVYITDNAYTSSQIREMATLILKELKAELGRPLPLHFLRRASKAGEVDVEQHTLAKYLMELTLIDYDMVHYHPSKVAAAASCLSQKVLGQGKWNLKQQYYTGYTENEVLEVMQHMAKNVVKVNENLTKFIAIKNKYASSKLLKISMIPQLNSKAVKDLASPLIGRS
Variant = ASASRVQLFKDDP [K3A]; value = 0.165
Variant = ASNSRVQLFKDDP [K3N]; value = -0.102
Variant = ASKSRVKLFKDDP [Q7K]; value = 0.334
Variant = ASKSRVQLFSDDP [K10S]; value = 0.548
Variant = ASKSRVQLFLDDP [K10L]; value = -0.142
Variant = ASKSRVQLFMDDP [K10M]; value = 0.181
Variant = ASKSRVQLFWDDP [K10W]; value = -0.294
Variant = ASKSRIQLFKDDP [V6I]; value = -0.215
Variant = ASKSRVQLWKDDP [F9W]; value = 0.48
Variant = ASKSRMQLFKDDP [V6M]; value = 0.6
Variant = ASKSRVQLFKDPP [D12P]; value = -0.111
Variant = ASLSRVQLFKDDP [K3L]; value = -0.0219
Variant = ASHSRVQLFKDDP [K3H]; value = 0.437
Variant = ASKSRAQLFKDDP [V6A]; value = 0.515
Variant = ASKSEVQLFKDDP [R5E]; value = -0.31
Variant = ASKSVVQLFKDDP [R5V]; value = 0.223
Variant = ASKFRVQLFKDDP [S4F]; value = 0.79

Set 3
Target: Centromere-binding protein 1, full length, N-terminal tag (CBF1, Saccharomyces cerevisiae, UniProt P17106, residues 1-351)
Sequence of UniProt P17106 (whole entry, looked up): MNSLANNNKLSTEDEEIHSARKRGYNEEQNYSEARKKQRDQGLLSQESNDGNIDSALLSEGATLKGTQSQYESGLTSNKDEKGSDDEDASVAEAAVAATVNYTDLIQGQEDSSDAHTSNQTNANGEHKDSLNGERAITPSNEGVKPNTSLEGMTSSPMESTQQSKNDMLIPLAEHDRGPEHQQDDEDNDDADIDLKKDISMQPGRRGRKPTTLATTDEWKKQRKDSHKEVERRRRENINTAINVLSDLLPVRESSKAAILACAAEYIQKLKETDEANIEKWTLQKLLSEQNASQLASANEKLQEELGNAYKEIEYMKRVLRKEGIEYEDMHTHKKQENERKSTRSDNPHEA
Method: protein-binding microarray
Form: double-stranded DNA, one strand shown
Sample: in vitro
Tested at: 0.8 µM
Setting: whole 60-bp probe, no competitor
Direction: higher = stronger binding
Measurement: fluorescence intensity
Constant ends, left off below: … GTCTTGATTCGCTTGACGCTGCTG
Oligonucleotide = CTATGTTTGTGGGATCTGTCACGTATATCGCCATTC; value = 724 a.u.
Oligonucleotide = CTACCGCAGAGTGATTGGGTCACAGGAAATAGCTTC; value = 535 a.u.
Oligonucleotide = GAACCAGATTGCCCTCACGTGAGGCTTCAGTAATAG; value = 6430 a.u.
Oligonucleotide = GAAGCTAGAAGCCATCACGAATATTTTTGTAAATAG; value = 516 a.u.
Oligonucleotide = CCTAACTACTATAACCACCAGGGATAGCTTCGTACA; value = 490 a.u.
Oligonucleotide = GAAGGAAAGATTACCCACCTGATATGCGTTAATTAG; value = 677 a.u.
Oligonucleotide = GAACAGGAAATATTTCACGTGACTTACAAACAGTAG; value = 23100 a.u.
Oligonucleotide = GAATTCCATCGATGCCATGTGACCTGGTGAATCTAG; value = 6110 a.u.
Oligonucleotide = CTACTTCAATGTCATCACGTACTTAATTATGTTTTC; value = 770 a.u.
Oligonucleotide = CTATAGAGTATAAATTGGGTGATGCTACACTAATTC; value = 521 a.u.
Oligonucleotide = TGTACGAAGCTATAACGTGTGATTATAGTAGTTAGG; value = 572 a.u.
Oligonucleotide = GAAGCTTTAAAAAATCACGCTCTGTGGTGCTAATAG; value = 689 a.u.
Oligonucleotide = GAAGACGGCAGCTGGCTCGTGGGATTTTTTCAATAG; value = 536 a.u.
Oligonucleotide = CCTAACTACTATAATCATGAAACATAGCTTCGTACA; value = 521 a.u.
Oligonucleotide = CTATCGGACACTTTTCCCGTCACGTGGAAACGGTTC; value = 12500 a.u.
Oligonucleotide = CTAGCAAAATAATGTCTCCTGAACTACATCGCCTTC; value = 559 a.u.
Oligonucleotide = GAATAAGAAAAACACCTGACAAATAATAATACCTAG; value = 2300 a.u.
Oligonucleotide = CTACACGGCATCTACCACATGTGGCTCAGGGTTTTC; value = 615 a.u.
Oligonucleotide = GAAAATATCACTCTACACGTTACCTTTTTAGTGTAG; value = 652 a.u.
Oligonucleotide = CTACAAAGCACTAGTCATGAAAAACGCTTACATTTC; value = 524 a.u.
Oligonucleotide = CCTAACTACTATATTTACGTGACATAGCTTCGTACA; value = 631 a.u.
Oligonucleotide = GAATGAAAGTGGGGTGCTCAGCTGATTTGCATCTAG; value = 763 a.u.
Oligonucleotide = CCTAACTACTATAGTGGTGGGCAATAGCTTCGTACA; value = 487 a.u.

Set 4
Target: RNA binding protein fox-1 homolog 2, RRM domain, GST-SBP tag (RBFOX2, Homo sapiens, UniProt O43251-10, residues 100-194)
Method: RNA Bind-n-Seq
Form: RNA
Sample: in vitro
Tested at: 365 nM
Setting: natural RNA segment, single round, ends assumed
Baseline: no-protein control
Direction: higher = stronger binding
Measurement: RBNS enrichment (R)
Constant ends, left off below: GGGAGUUCUACAGUCCGACGAUC … UGGAAUUCUCGGGUGCCAA
Oligonucleotide = GAAAGCUGAAUGCAUUUUACCAGUGAGGCUCUAGAUAUGAAACUUAGGGAUCCAUAGAUAAAUAAGCUACUAACAAACUGAUAACAGUGGUGUUCCAUCUCUCUAUCAUG; value = 0.799
Oligonucleotide = GGGUAGGGGGUGGGUGUGGUAAAGGAGGGCCGCACCCUAGGGUUUUCAAAUAAAACAACUAGAAAAAGUUCUUGCUUGCUGUUUACCUGGCUGAUUCUGUGUGACUGUGG; value = 1.57
Oligonucleotide = UGUUCUCAGAAUUAGACCCCACCUGUACUGUGUUCUAACACUGAGGGUGGUGGCACCUGAUUCAGAGCAGUGUGUGUGUGUGUGAAAAUACUGUAUAUUAAUGAUUAUUG; value = 0.415
Oligonucleotide = CCUCACCAAGAUAAUUCUGUACAGUGACUAGCAGAUCCUGGCCUAGGGUGGCUCAGCCGGUGUUUUCUAGAGUCCUUGUAUUAUAUACUGUCAACUCGUAUGCUGGGGGC; value = 0.808
Oligonucleotide = GUUGGGCCUAAAUAAAUGAGCUGUUGGAAGAAAAGAAUCACAGUACUUUCCAGCAGUCAGUCCCUGGUUCCUAGAUGUGUUCUAAGCAAUGCAAAUGUCUAAUUGUCCCC; value = 0.503
Oligonucleotide = GUCUGGCCAGAUGGGUUGCUGGCUGCACUGAGGGUGAUUCUUCUCAGAAGAUGGGCUGCCUGUGGUCAGGACAGGGCAUACCAGUCUGGACUCCACCUUCCCAGACACCU; value = 0.4
Oligonucleotide = CAGAGAGAUCAGCCCACCCUGCAGACCCACAGAGAAGAUUCAGAGUGUGUGUGAGAGUGAGUGAGUGUGCGUGCGUGCGUGCUUGUAUGUAUGUUUGUAUAUGUAGGACA; value = 2.65
Oligonucleotide = CGCUUUGCCAGCCUGGGAGCCGCGCGCAUGCGCGCUCUCUCUGCCCUUCUCACCUCUGCUUCACUCGCCUUCUGUGCUUGUUCCGGAGACUUUCCAGGCCAGGGAGAACU; value = 0.556
Oligonucleotide = UCUGCCUGGGCAAGAGUGUGGAGGUGCCGAGGUGUCUUCAUUCUCUCGCACAUUUCCACAGCACCUGCUAAGUUUGUAUUUAAUGGUUUUUGUUUUUGUUUUUGUUUGUU; value = 4.34
Oligonucleotide = GAAAGAAGAGGCCAGGGACUAGAAGAUGCACCCCUUUCCUCCUGGGAGCCCCACGCUUCAGGAGUAGACUAGAGCCACCUCACUUGUGUUCCGUGGGGUUACAUUUGCUU; value = 0.486
Oligonucleotide = CAACCCUUUUUCAGUAACUUAUGUUCACCAGUCUGUGCUUUUCUUCUCCCAGAAGGCUUUUCUUAGUGGUUGUAAAUGCAAGAAUCCUGAGCCCUGUGUUGCAAAGGUGG; value = 0.529
Oligonucleotide = CAGAGGGGGAAAAAAAAACUACAGACAAUUUCGGAUGUGAUUAGAUAUUCUUUUUUAAAUGCGGAUUUUCAAAACAUAUUUCCUUUCCAGUGUCCCUUUUGUGUCUGGCU; value = 0.4

Set 5
Target: TAR DNA-binding protein 43, full length, His tag (TARDBP, Homo sapiens, UniProt Q13148, residues 1-414)
Method: RNA Bind-n-Seq
Form: RNA
Sample: in vitro
Tested at: 20 nM
Setting: 6-mer, flanks averaged, single round
Together with: 150 mM KCl
Baseline: input library
Direction: higher = stronger binding
Measurement: 6-mer enrichment (R)
Oligonucleotide = AGUAAG; value = 0.924
Oligonucleotide = CCUGCC; value = 0.646
Oligonucleotide = GGCAAG; value = 2.18
Oligonucleotide = GCAACU; value = 0.688
Oligonucleotide = GAAAGA; value = 0.894
Oligonucleotide = CCAUGG; value = 1
Oligonucleotide = GAUACA; value = 0.675
Oligonucleotide = GGCAUC; value = 0.983
Oligonucleotide = UUAAUA; value = 0.64
Oligonucleotide = ACCUAG; value = 0.679
Oligonucleotide = CAUGAG; value = 1
Oligonucleotide = CCCAUC; value = 0.593

Set 6
Target: ABI1, truncated, D143A, DHFR fusion (Arabidopsis thaliana)
Method: DHFR PCA, deep sequencing
Sample: yeast
Setting: methotrexate growth selection, single substitutions
Together with: (+)-ABA 1.4 µM
Baseline: wild-type fitted maximum
Direction: higher = stronger binding
Measurement: relative binding score
Starting sequence: PYL1, truncated, DHFR fusion (Arabidopsis thaliana); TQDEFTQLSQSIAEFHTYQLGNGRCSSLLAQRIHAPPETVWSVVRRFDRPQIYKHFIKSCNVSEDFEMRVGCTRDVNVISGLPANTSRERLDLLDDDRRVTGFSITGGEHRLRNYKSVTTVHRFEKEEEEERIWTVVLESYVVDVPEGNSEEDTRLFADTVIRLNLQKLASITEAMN
Variant = S150M; value = -7.14%
Variant = T160K; value = 11.9%
Variant = T73L; value = 47%
Variant = G21S; value = 51.3%
Variant = N22T; value = 63.4%
Variant = E130K; value = 79.4%
Variant = Q51T; value = 1.42%
Variant = D144N; value = 0.346%
Variant = G148A; value = 5.65%
Variant = P36K; value = 40.5%
Variant = S27P; value = -4.76%
Variant = G71D; value = -1.13%
Variant = I12P; value = 0.843%
Variant = L93A; value = 22.3%
Variant = D75C; value = 54.3%
Variant = L156G; value = 6.99%

A few entries again (set 1):
Oligonucleotide = ATGCTTAA; value = -0.00291
Oligonucleotide = CCGCTGAC; value = 0.234
Oligonucleotide = CGAATCCG; value = 0.219
Oligonucleotide = AAGTTTAA; value = -0.109
Oligonucleotide = CGTCTGTC; value = 0.134
Oligonucleotide = GGAAGTCA; value = 0.077
Oligonucleotide = ATATTGAT; value = -0.117
Oligonucleotide = CTGGCCTA; value = -0.141
Oligonucleotide = CCAATTCA; value = -0.152
Oligonucleotide = ACGTGCGC; value = 0.283
Oligonucleotide = AAGACAAA; value = 0.0151
Oligonucleotide = TCGTCCCA; value = -0.159
Oligonucleotide = CAAACTTA; value = -0.00246
Oligonucleotide = CCCGCGGC; value = 0.389
Oligonucleotide = AGATTTGG; value = -0.214
Oligonucleotide = GCACCCGC; value = 0.263
Oligonucleotide = AGCACGCA; value = 0.121
